# Published values gathered from unrelated publications.
# Protocols differ between the studies behind these lines. ± gives the spread as reported.
# Target: Alpha-glucosidase MAL12 (MAL12, Saccharomyces cerevisiae S288c, UniProt P53341)
# Sequence of UniProt P53341 (whole entry, looked up): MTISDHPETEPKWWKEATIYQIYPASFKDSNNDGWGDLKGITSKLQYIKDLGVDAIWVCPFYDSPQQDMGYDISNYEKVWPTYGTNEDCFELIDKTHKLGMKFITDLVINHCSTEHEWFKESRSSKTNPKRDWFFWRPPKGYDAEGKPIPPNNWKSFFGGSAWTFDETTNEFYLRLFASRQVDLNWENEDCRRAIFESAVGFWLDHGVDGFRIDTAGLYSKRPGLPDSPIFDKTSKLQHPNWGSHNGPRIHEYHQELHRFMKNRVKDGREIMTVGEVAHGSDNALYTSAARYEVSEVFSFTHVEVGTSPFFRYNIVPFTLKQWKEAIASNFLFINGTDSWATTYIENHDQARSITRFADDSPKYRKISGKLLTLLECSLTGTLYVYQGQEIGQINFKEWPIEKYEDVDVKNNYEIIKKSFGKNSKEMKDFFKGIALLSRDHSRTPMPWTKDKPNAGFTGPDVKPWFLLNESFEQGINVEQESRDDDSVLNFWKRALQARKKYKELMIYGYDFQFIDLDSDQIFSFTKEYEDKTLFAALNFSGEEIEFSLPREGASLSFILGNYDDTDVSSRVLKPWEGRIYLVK
SMILES,effect on,action,tested at,time,notes,with,inhibition
NC(=O)Cc1ccc(O)c(Cc2ccc(O)cc2)c1,,inhibitor,100 µg/mL,0.4167 h,,p-nitrophenyl glucoside substrate,> 50%
Oc1cc2c(cc1O)C(c1ccc3[nH]ccc3c1)NCC2 (stereo not shown),enzyme activity,inhibitor,100 µM,,DMSO solvent,pNPG substrate,66.3 ± 1.48%
COc1cc([C@H](O)[C@H](O)CO)ccc1O,,inhibitor,100 µg/mL,0.4167 h,,p-nitrophenyl glucoside substrate,38.5 ± 3.6%
COc1ccc(-c2coc3c(Cn4cnc5ccccc54)c(O)ccc3c2=O)cc1OC,,inhibitor,25 µM,,,,18.8%
CCOC(=S)NCc1ccc(O[C@@H]2O[C@@H](C)[C@H](O)[C@@H](O)[C@H]2O)cc1,,inhibitor,100 µg/mL,0.4167 h,,p-nitrophenyl glucoside substrate,30 ± 4.75%
CC(C)(COC(=O)c1ccccc1)CC1=C(O)C(=O)c2ccccc2C1=O,enzyme activity,,50 µM,,,,inactive
Oc1ccccc1Cn1ccnc1,,inhibitor,25 µM,,,,< 0%
Oc1cccc(C2NCCc3cc(O)c(O)cc32)c1 (stereo not shown),enzyme activity,inhibitor,100 µM,,DMSO solvent,pNPG substrate,51.6 ± 3.07%
COc1cc(Cn2ccnc2)ccc1O,,inhibitor,25 µM,,,,< 0%
OCc1ccc(C2NCCc3cc(O)c(O)cc32)o1 (stereo not shown),enzyme activity,inhibitor,100 µM,,DMSO solvent,pNPG substrate,62.3 ± 1.14%

# A few entries again:
SMILES,effect on,action,tested at,time,notes,with,inhibition
OCc1ccc(C2NCCc3cc(O)c(O)cc32)o1 (stereo not shown),enzyme activity,inhibitor,100 µM,,DMSO solvent,pNPG substrate,62.3 ± 1.14%
